Experimental data from different studies.
Compare with care: the assays were run in different laboratories. ± marks the error that the study gave.

| SMILES | target or system | test | test system | setting | scale | endpoint | value |
| --- | --- | --- | --- | --- | --- | --- | --- |
| N=C(N)NCCC[C@@H]1NC(=O)[C@H](CO)NC(=O)[C@@H](NC(=O)[C@H](CO)NC(=O)[C@H](CO)NC(=O)[C@H](Cc2c[nH]c3ccccc23)NC(=O)CNC(=O)[C@H](CO)NC(=O)[C@@H](N)Cc2c[nH]c3ccccc23)CSSC[C@@H](C(=O)NCC(=O)O)NC(=O)[C@H](CO)NC1=O |  |  | patients, plasma | intravenous, 5 mg/kg, thrice weekly, geometric mean |  | AUC(0-inf) | 349 ng·h/mL |
| Cc1cc(C(=O)N(C)CC2CCCN(CCc3ccc(F)cc3)C2)c(C)o1 (stereo not shown) | Trypanosoma cruzi | reporter mRNA translation, inhibitor, measured: capped polyadenylated Renilla luciferase mRNA | cell-free extract | concentration not given | reference: control RNA | relative translation | 108% |
| Cc1cc(NC(=O)[C@H](O)c2cc(F)cc(F)c2)ccc1-c1cnc(N)c(C(=O)NC(C)C)c1 |  |  | female nude mouse, plasma | oral, 3 mg/kg, single dose |  | AUC(0-inf) | 1210 ng·h/mL |
| CN1CCN(C(=S)N/N=C/c2ccccc2O)CC1 |  |  | plasma | intravenous, 30 mg/kg |  | AUC(0-inf) | 2980 ± 365 ng·h/mL |
| C=C(NC(=O)c1csc(-c2nc3c(cc2O)-c2nc(cs2)C(=O)NC(C(C)O)C(=O)NC(=C(C)OC)c2nc(cs2)C(=O)NC2c4nc(cs4)C(=O)NC(COC(=O)c4c5c6c(cccc6n4O)COC(=O)C(OC4CC(C)(O)C(N(C)C)C(C)O4)C2OC5)c2nc-3cs2)n1)C(N)=O (stereo not shown) |  |  | female cynomolgus monkey, plasma | intravenous, 3 mg/kg, single dose, infusion |  | AUC(0-inf) | 28100 ng·h/mL |
| CC[C@H](C)[C@@H]1NC(=O)[C@H](Cc2ccc(O)cc2)NC(=O)CCCSC[C@@H](C(=O)N(CC(=O)N[C@@H](CC(C)C)C(=O)NCC(N)=O)Cc2ccc(F)cc2)NC(=O)[C@H](CC(N)=O)NC(=O)[C@H](CCC(N)=O)NC1=O |  |  | healthy women, plasma | intranasal, 400 µg single dose |  | AUC(0-inf) | 0.151 ng·h/mL |
| c1ccc(Nc2nc(NCC3CCCO3)c3ccccc3n2)cc1 (stereo not shown) | Trypanosoma cruzi | reporter mRNA translation, inhibitor, measured: capped polyadenylated Renilla luciferase mRNA | cell-free extract | concentration not given | reference: control RNA | relative translation | 41.5% |
| COc1cnc2cccc(N3CCc4c(cc(Cn5ccnc5)cc4-c4cn(C)nc4C(F)(F)F)C3=O)c2c1 |  |  | male CD-1 mouse, plasma | oral, 10 mg/kg |  | AUC(0-inf) | 3850 ng·h/mL |
| C/C(N)=N/C(=N\S(=O)(=O)c1ccc(C(F)(F)F)cc1)N1C[C@H](c2ccccc2)C(c2ccc(Cl)cc2)=N1 |  |  | male C57BL/6 mouse, liver | oral, 10 mg/kg |  | AUC(0-inf) | 56600 ng·h/mL |
| COCC1CN(C2CCN(c3cc(OC)c(Nc4ncc(Br)c(Nc5ccc6c(c5P(C)(C)=O)OCCO6)n4)cc3C)CC2)C1 |  |  | EGFR-mutant NSCLC patients, plasma | oral, 240 mg single dose, geometric mean |  | AUC(0-inf) | 53600 ng·h/mL |

Some of these lines once more:
| SMILES | target or system | test | test system | setting | scale | endpoint | value |
| --- | --- | --- | --- | --- | --- | --- | --- |
| CN1CCN(C(=S)N/N=C/c2ccccc2O)CC1 |  |  | plasma | intravenous, 30 mg/kg |  | AUC(0-inf) | 2980 ± 365 ng·h/mL |
